Experimental data pooled from the literature.
Compare with care: the assays were run in different laboratories. Several values in a cell are separate wells, animals, samples, runs or records.
Target: Protein kinase C theta type (PRKCQ, Homo sapiens, UniProt Q04759)

| SMILES | test | conditions | scale | endpoint | value |
| --- | --- | --- | --- | --- | --- |
| NC(=O)[C@@H](O)C[C@H]1CCc2sc3ncnc(O[C@H]4CC[C@H](N5CCOCC5)CC4)c3c21 | enzyme activity, inhibitor | 10 µM | – | inhibition | 14% |
| Cc1cccc(O[C@H]2CCC[C@@H](C(C)CNCc3ccncc3)C2)c1 (relative stereo) | enzyme activity | 10 µM | – | inhibition | -7% |
| O=C=[N][Ru-4]123([n]4c5ccc(O)cc5c5c6c(c7cc(F)c[n+]1c7c54)C(=O)NC6=O)[S+]1CC[S+]2CC[S+]3CC1 (stereo not drawn) | enzyme activity | 100 nM, human enzyme, added: 10 µM ATP | reference: untreated | remaining activity | 42% |
| C=CC(=O)Nc1cccc(-c2cnc3[nH]cc(C(=O)NC(C)(C)C)c3n2)c1 | kinase activity | 0.1 µM | – | inhibition | 13% |
| CNC(=O)C1CCN(c2cc(C)c(F)cc2NC(=O)c2ccc(-c3cc(O)ccc3C)c(C)c2)CC1 | binding, competition with immobilised ligand | 1 µM | – | remaining binding | 85% |
| CC(C)=CC1OC(C)(C)C2C=C3C(=O)C(Cl)=CC(O)C3C3C(O)C4OC4C(=O)C132 (stereo not drawn) | cell-free assay, competition with immobilised ligand | 10 µM | – | remaining binding | 90% |
| O=c1c(-c2ccc(Cl)c(CN3CCOCC3)c2)coc2cc(O)ccc12 | enzyme activity, inhibitor | 1 µM | – | remaining activity | 102% |
| COCC12C(=O)NC3C4(C(OC)CC1O)C1CC5(O)C(OC)C(O)C(OC(C)=O)(C1C5OC(=O)c1ccccc1)C3(O)C(OC)C24 (stereo not drawn) | kinase activity, inhibitor, ProQinase kinase profiling | 25 µM | reference: control | remaining activity | 129% and 103% |
| COc1cc(Nc2nccc(-c3cnn4nc(OC)ccc34)n2)cc(C(F)(F)F)c1 | binding, competition with immobilised ligand | 1 µM | – | remaining binding | 100% |
| CCN1CCN(Cc2ccc(C(=O)Nc3ccc(C)c(NCc4cnc5[nH]ccc5c4OC)c3)cc2C(F)(F)F)CC1 | binding, competition with immobilised ligand | 1 µM | – | remaining binding | 100% |
| C=CC(=O)N1Cc2nc(-c3cc(-c4cc(Cl)cnc4Cl)c(F)cc3F)n(-c3ccncn3)c2C1 | cell-free assay | 1 µM | – | inhibition | 2% |
| COc1ccc(NC(=O)Nc2ccc3c(c2)C(=O)N(C(C)CO)CC(C)C(CN(C)Cc2ccc4c(c2)OCO4)O3)cc1 (stereo not drawn) | kinase activity, KinaseProfiler | 0.03 µM, species human | reference: control | remaining activity | 85% |
| Cc1ccc(-c2c(/C=C(\C#N)C(=O)NC(C)C)n(CCCO)c3ncnc(N)c23)cc1 | cell-free assay, competition with immobilised ligand | 1 µM | – | remaining binding | 100% |
| COc1c(OCCCN2CCOCC2)ccc2c1N=C(NC(=O)c1cnc(N)nc1)N1CCN=C21 | kinase activity, inhibitor | 1 µM | reference: untreated control | remaining activity | 92% |
| C=CC(=O)N1CCCC(n2c(=O)c3ncccc3n(Cc3ccc(Oc4ccccc4)cc3)c2=O)C1 (stereo not drawn) | cell-free assay, competition with immobilised ligand | 1 µM | – | remaining binding | 98% |
